# Results collected from several papers.
# Compare with care: the assays were run in different laboratories. ± gives the spread as reported.
# DPP4: Dipeptidyl peptidase 4 (DPP4, Homo sapiens, UniProt P27487)
# UniProt P27487, sequence (whole entry, looked up): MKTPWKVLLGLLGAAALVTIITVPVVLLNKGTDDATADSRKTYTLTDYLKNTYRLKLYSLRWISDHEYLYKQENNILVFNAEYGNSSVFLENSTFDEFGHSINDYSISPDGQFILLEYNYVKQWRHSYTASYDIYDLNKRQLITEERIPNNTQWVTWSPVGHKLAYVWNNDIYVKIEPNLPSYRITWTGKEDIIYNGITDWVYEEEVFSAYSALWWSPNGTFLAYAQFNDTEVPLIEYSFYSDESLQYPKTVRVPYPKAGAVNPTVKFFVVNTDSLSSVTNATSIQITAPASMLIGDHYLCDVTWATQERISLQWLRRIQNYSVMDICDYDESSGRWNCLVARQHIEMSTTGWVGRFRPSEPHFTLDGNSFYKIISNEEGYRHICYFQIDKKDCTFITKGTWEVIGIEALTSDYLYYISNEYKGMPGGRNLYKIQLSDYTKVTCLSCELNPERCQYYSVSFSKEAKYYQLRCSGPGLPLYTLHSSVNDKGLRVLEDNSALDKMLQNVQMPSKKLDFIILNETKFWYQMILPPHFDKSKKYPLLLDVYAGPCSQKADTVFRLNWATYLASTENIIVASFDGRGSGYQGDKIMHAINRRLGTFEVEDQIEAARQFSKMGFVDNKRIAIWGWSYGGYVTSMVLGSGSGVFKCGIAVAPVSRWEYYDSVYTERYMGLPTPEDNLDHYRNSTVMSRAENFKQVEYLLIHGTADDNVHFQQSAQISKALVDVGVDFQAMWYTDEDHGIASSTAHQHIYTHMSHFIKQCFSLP
# SLC47A2: Multidrug and toxin extrusion protein 2 (SLC47A2, Homo sapiens, UniProt Q86VL8)
# UniProt Q86VL8, sequence (whole entry, looked up): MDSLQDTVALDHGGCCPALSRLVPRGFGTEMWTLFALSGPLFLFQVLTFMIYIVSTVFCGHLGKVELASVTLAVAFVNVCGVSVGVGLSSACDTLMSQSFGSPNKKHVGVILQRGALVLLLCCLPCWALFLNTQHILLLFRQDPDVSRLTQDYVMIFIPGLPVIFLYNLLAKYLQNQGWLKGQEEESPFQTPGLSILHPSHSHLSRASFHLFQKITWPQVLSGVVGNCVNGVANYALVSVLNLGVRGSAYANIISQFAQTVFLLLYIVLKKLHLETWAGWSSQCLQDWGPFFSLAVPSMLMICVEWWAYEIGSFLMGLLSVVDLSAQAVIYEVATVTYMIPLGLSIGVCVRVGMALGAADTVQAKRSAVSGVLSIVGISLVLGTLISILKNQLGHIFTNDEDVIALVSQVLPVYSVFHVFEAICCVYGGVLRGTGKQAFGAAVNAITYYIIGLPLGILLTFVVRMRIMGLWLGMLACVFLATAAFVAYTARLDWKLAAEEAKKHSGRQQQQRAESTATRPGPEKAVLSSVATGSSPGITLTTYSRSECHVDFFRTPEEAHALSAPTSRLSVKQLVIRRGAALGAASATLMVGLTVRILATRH
# UniProt P11509, sequence (whole entry, looked up): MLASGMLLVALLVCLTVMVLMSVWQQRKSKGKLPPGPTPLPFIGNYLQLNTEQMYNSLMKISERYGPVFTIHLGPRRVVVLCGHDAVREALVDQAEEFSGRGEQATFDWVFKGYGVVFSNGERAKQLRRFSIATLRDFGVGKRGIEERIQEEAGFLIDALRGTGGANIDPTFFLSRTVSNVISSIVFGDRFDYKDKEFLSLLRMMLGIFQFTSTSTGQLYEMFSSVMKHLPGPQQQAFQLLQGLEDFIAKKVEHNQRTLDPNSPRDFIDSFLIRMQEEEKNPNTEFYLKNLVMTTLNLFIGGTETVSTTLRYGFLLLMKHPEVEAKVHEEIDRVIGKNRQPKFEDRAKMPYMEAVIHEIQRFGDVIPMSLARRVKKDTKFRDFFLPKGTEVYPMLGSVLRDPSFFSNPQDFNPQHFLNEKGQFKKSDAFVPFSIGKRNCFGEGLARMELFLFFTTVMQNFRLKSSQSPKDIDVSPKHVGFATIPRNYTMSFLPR
# UniProt P21709, sequence (whole entry, looked up): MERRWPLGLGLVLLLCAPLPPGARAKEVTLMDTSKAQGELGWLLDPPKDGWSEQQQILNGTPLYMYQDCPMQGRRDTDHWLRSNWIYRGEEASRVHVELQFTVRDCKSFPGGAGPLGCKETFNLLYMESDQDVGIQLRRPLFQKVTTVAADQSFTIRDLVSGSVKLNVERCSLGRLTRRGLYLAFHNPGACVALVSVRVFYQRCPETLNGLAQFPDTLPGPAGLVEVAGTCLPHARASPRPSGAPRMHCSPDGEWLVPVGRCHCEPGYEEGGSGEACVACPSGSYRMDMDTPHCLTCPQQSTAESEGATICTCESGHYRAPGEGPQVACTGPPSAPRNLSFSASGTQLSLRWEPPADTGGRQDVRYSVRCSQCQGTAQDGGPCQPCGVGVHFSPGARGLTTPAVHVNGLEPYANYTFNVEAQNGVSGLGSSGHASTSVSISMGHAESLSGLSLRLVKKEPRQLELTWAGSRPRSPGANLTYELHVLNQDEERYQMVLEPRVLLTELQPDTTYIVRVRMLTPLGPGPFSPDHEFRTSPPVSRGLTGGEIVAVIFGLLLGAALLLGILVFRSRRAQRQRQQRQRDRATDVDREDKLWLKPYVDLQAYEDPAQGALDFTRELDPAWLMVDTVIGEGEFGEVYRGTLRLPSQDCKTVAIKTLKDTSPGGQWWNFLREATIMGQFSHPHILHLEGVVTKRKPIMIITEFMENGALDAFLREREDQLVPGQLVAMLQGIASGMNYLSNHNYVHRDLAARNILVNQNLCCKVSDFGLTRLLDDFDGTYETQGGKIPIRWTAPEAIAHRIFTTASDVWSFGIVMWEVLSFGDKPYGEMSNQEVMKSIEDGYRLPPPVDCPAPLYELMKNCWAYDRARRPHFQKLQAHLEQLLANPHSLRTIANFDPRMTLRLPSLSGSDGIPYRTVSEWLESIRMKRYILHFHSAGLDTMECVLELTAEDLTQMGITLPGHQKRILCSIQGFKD
# UniProt Q9UM07, sequence (whole entry, looked up): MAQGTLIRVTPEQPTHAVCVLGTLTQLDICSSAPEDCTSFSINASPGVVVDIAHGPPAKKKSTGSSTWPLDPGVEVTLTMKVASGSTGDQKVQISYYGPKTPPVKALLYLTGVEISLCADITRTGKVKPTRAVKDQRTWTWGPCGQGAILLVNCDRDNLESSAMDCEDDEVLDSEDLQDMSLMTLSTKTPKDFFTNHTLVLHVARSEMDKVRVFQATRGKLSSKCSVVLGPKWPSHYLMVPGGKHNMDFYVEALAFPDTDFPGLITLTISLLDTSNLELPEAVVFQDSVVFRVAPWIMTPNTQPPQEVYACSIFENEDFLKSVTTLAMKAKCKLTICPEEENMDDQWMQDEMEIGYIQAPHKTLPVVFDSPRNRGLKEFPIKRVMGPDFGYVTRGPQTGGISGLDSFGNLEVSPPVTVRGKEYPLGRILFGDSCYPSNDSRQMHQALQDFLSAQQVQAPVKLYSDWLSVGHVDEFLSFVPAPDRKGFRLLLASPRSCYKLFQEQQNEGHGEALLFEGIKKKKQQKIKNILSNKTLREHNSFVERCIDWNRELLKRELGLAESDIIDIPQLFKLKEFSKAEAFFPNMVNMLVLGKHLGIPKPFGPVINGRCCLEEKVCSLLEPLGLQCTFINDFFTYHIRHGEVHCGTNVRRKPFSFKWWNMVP
Structure (SMILES),tested on,test,test system,setting,scale,measurement,result
CC[C@H](C)[C@H](NC(=O)[C@H](Cc1ccccc1)NC(=O)[C@H](CCC(=O)O)NC(=O)[C@H](CCCCN)NC(=O)[C@H](C)NC(=O)[C@H](C)NC(=O)[C@H](CCC(N)=O)NC(=O)CNC(=O)[C@H](CCC(=O)O)NC(=O)[C@H](CC(C)C)NC(=O)[C@H](Cc1ccc(O)cc1)NC(=O)[C@H](CO)NC(=O)[C@H](CO)NC(=O)[C@@H](NC(=O)[C@H](CC(=O)O)NC(=O)[C@H](CO)NC(=O)[C@@H](NC(=O)[C@H](Cc1ccccc1)NC(=O)[C@@H](NC(=O)CNC(=O)N(CCC(=O)O)NC(=O)[C@H](C)NC(=O)N(N)Cc1c[nH]cn1)[C@@H](C)O)[C@@H](C)O)C(C)C)C(=O)N[C@@H](C)C(=O)N[C@@H](Cc1c[nH]c2ccccc12)C(=O)N[C@@H](CC(C)C)C(=O)N[C@H](C(=O)N[C@@H](CCCNC(=N)N)C(=O)NCC(=O)N[C@@H](CCCNC(=N)N)C(=O)NCC(=O)O)C(C)C,DPP4,HPLC-UV,Tris-HCl,"0.1 mM, 4 h, pH 7.4, 37 °C, with: DPP4 16 nM",,remaining peptide,100%
CNC(=O)C1OC(n2cnc3c(NCc4cccc(I)c4)ncnc32)C(O)C1O (stereo not drawn),SLC47A2,"transport, inhibitor",transiently transfected cells,"100 µM, 10 (unit not given), with: thiamine",,inhibition,85%
CN[C@@H]1[C@H](O)[C@H](NC)[C@H]2O[C@]3(O)[C@H](O[C@@H]2[C@H]1O)O[C@H](C)C[C@H]3NC(=O)Cc1ccc(Cl)cn1,"CYP2C19 (Homo sapiens, UniProt P33261)",,,10 µM,,inhibition,-9%
CC(=O)NCCCC[C@@H]1NC(=O)[C@H](Cc2c[nH]c3c(C)cccc23)NC(=O)[C@H]([C@@H](C)O)NC(=O)[C@H](CC(N)=O)NC(=O)[C@@H](NC(C)=O)C(C)(C)SSC(C)(C)[C@@H](C(=O)N[C@@H](Cc2ccc(OCCN)cc2)C(=O)N[C@@H](Cc2ccc3ccccc3c2)C(=O)NC2(C(=O)N[C@@H](CCC(=O)O)C(=O)N[C@@H](CC(N)=O)C(=O)N[C@@H](Cc3cccnc3)C(=O)N(C)CC(N)=O)CCOCC2)NC1=O,"ABCB1 (Homo sapiens, UniProt P08183)","transport, inhibitor",LLC-PK1 expressing MDR1,"3 µM, 90 min, with: [3H]digoxin",,efflux ratio,16.6
Cc1cc(-c2ccc3ccccc3c2)nnc1NCCN1CCN(C)CC1,SLC47A2,"transporter uptake, inhibitor",,10 µM,,inhibition,62%
CC[C@H](C)[C@H](NC(=O)[C@H](Cc1ccccc1)NC(=O)[C@H](CCC(=O)O)NC(=O)[C@H](CCCCN)NC(=O)[C@H](C)NC(=O)[C@H](C)NC(=O)[C@H](CCC(N)=O)NC(=O)CNC(=O)[C@H](CCC(=O)O)NC(=O)[C@H](CC(C)C)NC(=O)[C@H](Cc1ccc(O)cc1)NC(=O)[C@H](CO)NC(=O)[C@H](CO)NC(=O)[C@@H](NC(=O)[C@H](CC(=O)O)NC(=O)[C@H](CO)NC(=O)[C@@H](NC(=O)[C@H](Cc1ccccc1)NC(=O)[C@@H](NC(=O)CNC(=O)[C@H](CCC(=O)O)NC(=O)[C@H](C)NC(=O)[C@@H](N)Cc1c[nH]cn1)[C@@H](C)O)[C@@H](C)O)C(C)C)C(=O)N[C@@H](C)C(=O)N[C@@H](Cc1c[nH]c2ccccc12)C(=O)N[C@@H](CC(C)C)C(=O)N[C@H](C(=O)N[C@@H](CCCCN)C(=O)NCC(=O)N[C@@H](CCCNC(=N)N)C(=O)NCC(=O)N[C@@H](Cc1ccccc1)C(=O)N[C@@H](Cc1ccccc1)C(=O)NCC(=O)O)C(C)C,DPP-4 (recombinant),"substrate, LC-MS",,"500 µM, 12 h",,remaining peptide,~86%
CCCCCn1ccc(C(=O)NC(C)(C)c2ccc(CNC(C)=O)cc2)n1,CYP2B6 human,"RT-qPCR, item: CYP2B6 mRNA",HepaRG,concentration not given,baseline: positive control,CYP induction,< 10%
N[C@H](C(=O)N1CCCC1)C1CCN(c2nccc3c(-c4ncc(Cl)cc4Cl)cccc23)CC1,"PADI4 (Homo sapiens, UniProt Q9UM07)","enzyme activity, GDH-coupled",,"60 µM, with: 0.25 mM Ca2+ (low)",,inhibition,102%
C[C@@H](c1ccc2nccn2c1)n1nnc2ncc(-c3cn[nH]c3)nc21,"Cytochrome P450 2A6 (CYP2A6, Homo sapiens, UniProt P11509)","enzyme activity, reversible inhibitor",human liver microsomes,,,IC50,> 30 µM
CNC(=O)C1CCCN(C(=O)C2CC3CCC2N3C(=O)[C@@H]2C[C@@H](O)CN2C(=O)NCc2cccc(Cl)c2F)C1 (mixture of isomers),CYP3A4 (human),"inhibitor, time-dependent inhibition",,"5.56 µM, preincubated with NADPH, with: midazolam substrate",baseline: negative control,remaining activity,104%
O=C1NC(=O)c2c1c1cc(F)c[n+]3c1c1c2c2cc(O)ccc2[n]1[Ru-4]312([N]=C=S)[S+]3CC[S+]1CC[S+]2CC3 (stereo not drawn),"EPHA1 (Homo sapiens, UniProt P21709)",enzyme activity,,"100 nM, human enzyme, with: 10 µM ATP",baseline: untreated,remaining activity,107%
C[C@@H](c1ccc2nccn2c1)n1nnc2nc(O)c(-c3cnn(C)c3)nc21,human CYP3A4/5,inhibitor,pooled human liver microsomes,"reversible inhibition, with: midazolam substrate",,IC50,35 µM
CC[C@H](C)[C@H](NC(=O)[C@H](CO)NC(=O)[C@H](Cc1ccc(O)cc1)NC(=O)[C@H](Cc1ccc(O)cc1)NC(=O)[C@H](CC(N)=O)NC(=O)CNC(=O)[C@H](CO)NC(=O)[C@H](Cc1ccc(O)cc1)NC(=O)[C@H](CO)NC(=O)[C@H](CO)NC(=O)[C@H](CC(N)=O)NC(=O)COCCOCCNC(=O)CN1CCN(CC(=O)O)CCN(CC(=O)O)CCN(CC(=O)O)CC1)C(=O)N[C@@H](CC(C)C)C(N)=O [copper-64 labelled],,dynamic PET,"tamoxifen-induced PDAC mouse model, pancreas","5.5 min, CLDN4-expressing tumours",,maximum pancreas uptake,16.6 %IA/cc
O=C1NC2(CC2)COc2ncc(F)cc2[C@H]2COCCN2c2ccn3ncc1c3n2,,,"Sprague-Dawley rat, female, uterus","oral, 5 mg/kg/day, 4 weeks dosing, end of recovery",,organ-to-body weight ratio,0.266 ± 0.098%
COc1ccccc1-c1n[nH]c2nc(NC3CCN(C(=O)Cc4ccc(F)cc4F)CC3)ncc12,,"bead binding, competition bead pull-down, item: LMJF.34.3670",Leishmania donovani axenic amastigote extract,10 µM,baseline: vehicle,relative abundance,1.28
CC(C)(C)C(=O)OCOP(=O)(OCOC(=O)C(C)(C)C)C1CCCN(O)C1=O (stereo not drawn),OVCAR-5,,,,,GI50,2.01 µM
CC[C@H](C)[C@H](NC(=O)[C@H](Cc1ccccc1)NC(=O)[C@H](CCC(=O)O)NC(=O)[C@H](CCCCN)NC(=O)[C@H](C)NC(=O)[C@H](C)NC(=O)[C@H](CCC(N)=O)NC(=O)CNC(=O)[C@H](CCC(=O)O)NC(=O)[C@H](CC(C)C)NC(=O)[C@H](Cc1ccc(O)cc1)NC(=O)[C@H](CO)NC(=O)[C@H](CO)NC(=O)[C@@H](NC(=O)[C@H](CC(=O)O)NC(=O)[C@H](CO)NC(=O)[C@@H](NC(=O)[C@H](Cc1ccccc1)NC(=O)[C@@H](NC(=O)CNC(=O)[C@H](CCC(=O)O)NC(=O)C(C)(C)NC(=O)N(N)Cc1c[nH]cn1)[C@@H](C)O)[C@@H](C)O)C(C)C)C(=O)N[C@@H](C)C(=O)N[C@@H](Cc1c[nH]c2ccccc12)C(=O)N[C@@H](CC(C)C)C(=O)N[C@H](C(=O)N[C@@H](CCCNC(=N)N)C(=O)NCC(=O)N[C@@H](CCCNC(=N)N)C(=O)NCC(=O)O)C(C)C,DPP4,HPLC-UV,Tris-HCl,"0.1 mM, 1 h, pH 7.4, 37 °C, with: DPP4 16 nM",,remaining peptide,100%
CCN(CC)CCOc1ccc(-c2nnn(Cc3ccc(OC)cc3)c2N)cc1,"Cytochrome P450 2C8 (CYP2C8, Homo sapiens, UniProt P10632)",inhibitor,,,,IC50,> 50 µM

# Repeated from above:
Structure (SMILES),tested on,test,test system,setting,scale,measurement,result
O=C1NC2(CC2)COc2ncc(F)cc2[C@H]2COCCN2c2ccn3ncc1c3n2,,,"Sprague-Dawley rat, female, uterus","oral, 5 mg/kg/day, 4 weeks dosing, end of recovery",,organ-to-body weight ratio,0.266 ± 0.098%
